Experimental data pooled from the literature.
A part holds a random share of what one study measured.

Series 1
Target: Interferon regulatory factor 3, full length, phosphomimetic (IRF3, Homo sapiens, UniProt Q14653, residues 1-427, S386D/S396D/S398D/S402D/T404D/S405D)
Technique: protein-binding microarray
Form: double-stranded DNA, one strand shown
Medium: in vitro
Concentration: 2540 nM top
Setting: 60-bp whole probe
With: salmon DNA 0.4 mg/ml
Baseline: random background probes
Direction: higher = stronger binding
Shared flanks, not repeated: GCCTAGCAC … GTCTTGATTCGCTTGACGCTGCTG
Target sequence (chain): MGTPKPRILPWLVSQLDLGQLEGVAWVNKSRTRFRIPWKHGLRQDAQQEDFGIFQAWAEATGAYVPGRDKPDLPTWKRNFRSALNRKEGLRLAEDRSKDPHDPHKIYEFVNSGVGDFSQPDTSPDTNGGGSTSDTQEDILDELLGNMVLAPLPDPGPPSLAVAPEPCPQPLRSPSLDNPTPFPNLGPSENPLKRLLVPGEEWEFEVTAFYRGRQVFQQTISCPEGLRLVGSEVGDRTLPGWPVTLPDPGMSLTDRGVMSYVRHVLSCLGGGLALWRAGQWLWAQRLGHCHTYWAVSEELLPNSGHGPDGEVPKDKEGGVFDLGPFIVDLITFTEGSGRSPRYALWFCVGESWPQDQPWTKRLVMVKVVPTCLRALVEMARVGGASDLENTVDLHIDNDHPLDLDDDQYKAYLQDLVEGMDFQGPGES
Oligonucleotide | fitted relative affinity
GACGGTACCGGGTTTCGGGACGTGCTA | 1.52 z-score
TCACCTTTTCTTTACTGACTGTGCTAG | 3.59 z-score
TTGTTTCTAATATTCTGCTTGTGCTAG | 1.69 z-score
GACAACTGATATCAAAGGGAGTGCTAG | 0.113 z-score
AGTGTTTGCCCTATTTAAGAGTGCTAG | 1.25 z-score
GACGGTTTCGACACTGGGAACGTGCTA | 3.15 z-score
GACGGTCTCCTTACCCTGACGTGCTAG | 1.81 z-score
TCAAATCTCCCATTATAACTGTGCTAG | 1.26 z-score
GACGGTTCCCTTGTCCTGACGTGCTAG | 2.11 z-score
TCATTTTGCTTTCTTTAACTGTGCTAG | 2.85 z-score
TCATCTCTGCTCCTTCTGACTGTGCTA | 0.987 z-score
GACGGACCGGGGTTTCGGGACGTGCTA | 0.782 z-score
CTGGCTATTTTATATGCTATGGTGCTA | 0.0198 z-score
GATGGTCTCGGTTTCGGGACGTGCTAG | 3.87 z-score
TCAGGTTTCGACTATCGGTTAGTGCTA | 2.68 z-score
GACGGTTTCGTGACTGGGGACGTGCTA | 2.67 z-score
GACGGTATCCTGATCCTGACGTGCTAG | 1.71 z-score
TCAGGTCTGGATGTGCCACTGTGCTAG | -0.129 z-score
TTAGGACTGGGGTCTGGGTTAGTGCTA | -1.16 z-score

Series 2
Target: RNA binding protein fox-1 homolog 2, RRM domain, GST-SBP tag (RBFOX2, Homo sapiens, UniProt O43251-10, residues 100-194)
Technique: RNA Bind-n-Seq
Form: RNA
Medium: in vitro
Concentration: 365 nM
Setting: natural RNA segment, single round, ends assumed
Baseline: no-protein control
Direction: higher = stronger binding
Shared flanks, not repeated: GGGAGUUCUACAGUCCGACGAUC … UGGAAUUCUCGGGUGCCAA
Residues (chain): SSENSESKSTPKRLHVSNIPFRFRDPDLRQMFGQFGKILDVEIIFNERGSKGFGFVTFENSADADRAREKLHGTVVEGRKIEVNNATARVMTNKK
Oligonucleotide | RBNS enrichment (R)
UACAGGGUUCAGUUUUGUAUAUUUUUUCAGCAAAUUUUUAUACAGUGUCAUUUAAUUUGGGAGAGGAUACUGUCCAGAAAAUUAAUGCAUACUUUUGUCACAAUUUGCCU | 0.521
AGCUGUGAGUGUGGCCUGCUGCCUGCUUGUGAUGAGUGAUACCGUCUUACUGUUUCUGUUUCACAUAGGGACAUUUAAAUCAAUGUCAAUGUGCGUCCAUGCUUGAGUGA | 0.793
ACCCAUCCAGUGGACUCUGGGGCGCGGCCACAGGGGACGGGAUGAGGAGCGGGAGGGUUCCGCCACUCCAGUUUUCUCCUCUGCUUCUUUGCCUCCCUCAGAUAGAAAAC | 0.557
ACAUGCUGCAUCUCCAGAGAUGUGCCAAGCCAAGGAGAAUGCUAGAAGCAGAGUAAAGCUUACCCCCCAAACUGUGGUCCAGCUGGACCCCUUCUUUAAUUCUUGCCUAA | 0.423
AAGCCACCCACCAGCCUAUCUAUCUUCCACUGAGAGGGACCUAGCAGAAUGAGAGAAGACAUUCAUGUACCACCUACUAGUCCCUCUCUCCCCAACCUCUGCCAGGGCAA | 0.636
GCCACAGACAGACAGAUGAUGAGGAAGAGACACAUGAAGAAUAGCCUCCCUCCCACCAUCCCAGAAAGGCUCAGGGCAGCCGUGAUCCUCCUAGGGUCACAGUCGGUCAG | 0.202
GUUGUAACACUGAGGUAUCUCAUUUGCUCAUGUUAAUUUUUUUCUAAAUAAAUGGACAAAAAAUGAAGGUUCUGGUGAGUUAGCUGUUUUAUGGGUGUUAAGGACUGGUC | 0.477
AAGUCACUGGUGGCUUUAAAUAACCCAGCGUUGUUCCUCCACACGGCUUUGGUACUCUCUACCUCUUACCGAGCACCGCCCUUUUGACCUUGUAUAGCCAGUUUGACCAU | 0.404

Series 3
Target: Prothrombin, mature alpha-thrombin (F2, Homo sapiens, UniProt P00734)
Technique: aptamer microarray, sandwich
Form: DNA with 2'F-ANA
Medium: in vitro
Concentration: 200 nM
Setting: whole 15-mer aptamer, many near background
With: Cy3 exosite-II aptamer, 400 nM
Direction: higher = stronger binding
Oligonucleotide: GGTTGGTGTGGTTGG
Modification | mean fluorescence intensity [a.u.]
2'F-ANA at 2 3 4 5 6 7 9 11 13 15 | 65.7
2'F-ANA at 1 2 4 5 6 7 8 9 10 12 13 14 | 88.3
2'F-ANA at 3 4 5 6 7 9 12 13 15 | 123
2'F-ANA at 1 2 5 6 7 13 14 15 | 49.1
2'F-ANA at 1 2 5 8 9 15 | 64
2'F-ANA at 7 8 11 14 15 | 206
2'F-ANA at 3 4 5 7 9 10 12 | 61.4
2'F-ANA at 1 2 3 7 8 9 11 12 13 | 384
2'F-ANA at 1 5 8 10 12 13 | 67.2
2'F-ANA at 1 2 3 7 8 9 12 13 14 15 | 299
2'F-ANA at 3 4 7 8 9 10 12 14 | 196
2'F-ANA at 4 6 8 10 13 15 | 66.2
2'F-ANA at 1 2 4 8 10 11 12 15 | 93.6
2'F-ANA at 3 8 10 12 13 14 15 | 410
2'F-ANA at 1 4 6 7 9 11 12 14 15 | 57.7
2'F-ANA at 1 2 6 7 10 13 14 15 | 50.6
2'F-ANA at 1 3 4 6 7 8 9 14 15 | 71.3
2'F-ANA at 2 5 6 7 9 12 14 15 | 47.6
2'F-ANA at 2 4 5 6 7 8 12 14 | 51
2'F-ANA at 1 3 4 6 8 12 15 | 432
2'F-ANA at 1 3 4 9 10 11 12 14 | 49.8
2'F-ANA at 3 7 8 12 15 | 1580

Series 4
Target: Histone acetyltransferase KAT6A, winged helix 2, GST fusion (KAT6A, Homo sapiens, UniProt Q92794, residues 85-181)
Technique: protein binding microarray
Form: double-stranded DNA, one strand shown
Medium: in vitro
Concentration: not given
Setting: 8-mer, flanks averaged, mean of 2 arrays, mostly near background
Baseline: not given
Direction: higher = stronger binding
Residues (chain): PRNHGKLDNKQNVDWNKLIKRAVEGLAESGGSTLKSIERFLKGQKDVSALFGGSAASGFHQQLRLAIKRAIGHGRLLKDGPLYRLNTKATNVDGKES
Oligonucleotide | E-score
CAGAAACA | -0.0221
ACTATTAA | 0.0271
GTTTGGGA | 0.178
CCGCTACA | -0.0297
CCGGTTAA | 0.114
AGCGTAGG | 0.0483
CCATACGC | 0.0201
GGGCATAA | -0.0325
TCGTAGCA | 0.0815
ACAAGGGT | -0.116
TAATAGTA | 0.064
AGGTCACA | -0.0823
GACCCGGC | 0.139
ACGTCGCT | -0.126
ACGCTATA | -0.171
AACCGTGG | -0.155
CTGGCTAA | -0.0485
GAACGTGA | -0.0666
CAACTAAG | 0.0447
CTCCCCAA | 0.0461

Excerpt of the above (series 4):
Oligonucleotide | E-score
ACGCTATA | -0.171
GACCCGGC | 0.139
ACTATTAA | 0.0271
TCGTAGCA | 0.0815
ACAAGGGT | -0.116
ACGTCGCT | -0.126
CCGGTTAA | 0.114
